Results of several laboratories.
Parts stem from different laboratories: compare values within a part only. Positions count from the first letter of the parent shown.

Study 1
Target: RNA binding protein fox-1 homolog 2, RRM domain, GST-SBP tag (RBFOX2, Homo sapiens, UniProt O43251-10, residues 100-194)
Method: RNA Bind-n-Seq
Molecule type: RNA
Matrix: in vitro
Concentration: 365 nM
Setting: natural RNA segment, single round, ends assumed
Baseline: no-protein control
Direction: higher = stronger binding
Construct (chain): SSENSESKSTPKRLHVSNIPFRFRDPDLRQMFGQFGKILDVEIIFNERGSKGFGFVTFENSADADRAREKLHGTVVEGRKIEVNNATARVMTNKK
Strand | RBNS enrichment (R)
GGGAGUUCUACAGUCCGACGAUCGGCUUUGGAAAAGAGCCCAGGGACUUAACGUGCUGCCUGUUGUACUCUGUCCCCUCAUGACUUUUUAGACACAGGGACUAGGACAUCGACCACCCUCUGCCCCUCCUGCAUGGAAUUCUCGGGUGCCAA | 0.826
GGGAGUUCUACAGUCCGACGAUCUUAAACUGGUGAUUUUGGUUGCACUGCUCACUUUAAGAGUUAACAUGCUCACUUGUUAGUAUUUCUGAGUAACAAGAUGGUGACUUCUCCUUGGGGAUCUGGGAGCUGAGUGGAAUUCUCGGGUGCCAA | 1.22
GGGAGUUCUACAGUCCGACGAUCGCUCUUGAGCAAGUUGGGACUUGGGCCGGGGCCUGGAAGAAUGAUUGGCUGGGAGGCCGCGGGAGGGAGGCCAGGAGGCCCGGACCAGUUGGGAGGAGUGAGCAGGCCCCUGGAAUUCUCGGGUGCCAA | 1.31
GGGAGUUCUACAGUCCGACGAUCGCCGAACUUCAGCCAUCAGAUCCUUCAAAGUGGAACUUUGGAUUGUUUUUACAGACAACAUCGAGUAAUGGCUUGUAAAUGUGAAUUUUGCCAGAGGUGGUUUUUGAACAUGGAAUUCUCGGGUGCCAA | 0.373
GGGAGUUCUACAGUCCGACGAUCCCUUUUUUAUGAUUUUGUAAGUUCCCAUAAGUUGUGUGCACGAGGUUCUGAGAGUGCCCGCAGGCUGCUGCGUCCUGGCCCCUCUGUAGUGGCUGCGGGCGUCUUGGUUGUGGAAUUCUCGGGUGCCAA | 1.17
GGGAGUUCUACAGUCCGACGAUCUAUUUUAAAAUGUAAUGUUACUUAUGAAAAGUAUUUUGCUUAAGGUUGUGUGUGUAUUGUGUAUAUACCUCAAGUUCAAGUUAAUGGCAUUGAUUUAUGUUCCAGACAAAUGGAAUUCUCGGGUGCCAA | 0.421
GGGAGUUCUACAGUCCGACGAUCACUCUGUCCCCUCAUGACUUUUUAGACACAGGGACUAGGACAUCGACCACCCUCUGCCCCUCCUGCAGUCAGAACCCGAGUAGUGCAAGAACGGCCACCCGGUUUUGCCAUGGAAUUCUCGGGUGCCAA | 0.395
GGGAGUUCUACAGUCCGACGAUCUAUACAUGGAUAUUCAAUUUUGAUGGCUUCCAGAUUUGUAAGAUUGUAUGUUGUAUAUACCAUUCUAUUAAGAAACAUGUCCACUGUGCUUUCAAACAUAGAUAAAGCAUUGGAAUUCUCGGGUGCCAA | 0.299

Study 2
Target: ABI1, truncated, D143A, DHFR fusion (Arabidopsis thaliana)
Method: DHFR PCA, deep sequencing
Matrix: yeast
Setting: methotrexate growth selection, single substitutions
With: (+)-ABA 200 µM
Baseline: wild-type fitted maximum
Direction: higher = stronger binding
Parent: PYL1, truncated, DHFR fusion (Arabidopsis thaliana); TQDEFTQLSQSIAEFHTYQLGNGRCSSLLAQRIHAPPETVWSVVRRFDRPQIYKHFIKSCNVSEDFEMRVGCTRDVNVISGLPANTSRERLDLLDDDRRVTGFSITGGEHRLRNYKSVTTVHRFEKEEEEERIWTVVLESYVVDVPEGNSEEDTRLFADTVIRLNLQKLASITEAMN
Change | relative binding score
V70R | 85.1%
V78L | 105%
L82A | 61%
P50F | 2.78%
G148Q | 78.1%
S140F | -0.333%
A158C | 102%
C25R | 21.2%
T101L | 105%
I57W | 10.2%
T6V | 102%
A84K | 9.98%
G107T | 63.8%
S171D | 105%
K168F | 65.9%

Study 3
Target: Ras GTPase-activating protein-binding protein 1, C-terminal RGG region (G3BP1, Homo sapiens, UniProt Q13283)
Sequence of UniProt Q13283 (whole entry, looked up): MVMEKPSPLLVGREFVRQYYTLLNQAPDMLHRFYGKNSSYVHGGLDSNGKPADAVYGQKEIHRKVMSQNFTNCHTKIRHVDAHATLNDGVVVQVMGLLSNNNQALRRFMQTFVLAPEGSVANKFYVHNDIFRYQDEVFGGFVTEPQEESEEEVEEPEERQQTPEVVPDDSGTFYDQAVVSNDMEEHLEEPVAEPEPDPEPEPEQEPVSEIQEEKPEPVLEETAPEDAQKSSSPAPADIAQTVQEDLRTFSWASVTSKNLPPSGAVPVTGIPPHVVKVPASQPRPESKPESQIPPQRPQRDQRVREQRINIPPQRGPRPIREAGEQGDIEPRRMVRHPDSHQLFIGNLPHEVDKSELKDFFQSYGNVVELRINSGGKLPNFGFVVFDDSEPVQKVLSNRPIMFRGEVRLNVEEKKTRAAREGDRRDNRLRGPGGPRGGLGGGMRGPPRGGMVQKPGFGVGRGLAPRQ
Method: RNA Bind-n-Seq
Molecule type: RNA
Matrix: in vitro
Concentration: 1 µM
Setting: whole 134-nt RNA, ends assumed
With: 150 mM KCl
Baseline: input library
Direction: higher = stronger binding
Strand | log2 enrichment
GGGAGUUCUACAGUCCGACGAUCUCAAGUCCUGUGCUACACAUCGUAUGUACCGAAUCGGGUUGGGGUUGGUUGGGGAAAGUAUUAUGUUACGCCGUUCGGAUCUGCACUUCCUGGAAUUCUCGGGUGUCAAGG | 0.76
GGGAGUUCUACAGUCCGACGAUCGUCCUGUGCUACACAUCGUAUGUACCGAAUCGGUUUUUUGGUUUUUUGGUUUUUUGGGGAAAGUAUUAUGUUACGCCGUUCGGAUCUGCAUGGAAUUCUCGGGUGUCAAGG | -1.52
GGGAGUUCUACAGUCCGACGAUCGCAGGAAGUAAAAACAAAUGGAAAUGCUUCGGAUAGUGGCAGGGGUGGGGGUUGCUAAGGAAAGCGUGGGAUGGGAGUGGGUAAAGAGUUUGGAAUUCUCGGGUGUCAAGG | 1.41
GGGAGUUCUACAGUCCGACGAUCAAGUCCUGUGCUACACAUCGUAUGUACCGAAUCGGGGAAAGGGGUGGGGUUUGGGGAAAGUAUUAUGUUACGCCGUUCGGAUCUGCACUUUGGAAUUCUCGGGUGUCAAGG | 1.76
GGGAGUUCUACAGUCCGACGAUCUGGCCCUGGUGGCAUGCGGGGAGGAAGAGGUGGCCUCAUGGAUCGAGGUGGUCCCGGUGGAAUGUUCAGAGGUGGCCGUGGUGGAGACAGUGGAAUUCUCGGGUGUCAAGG | 2.51
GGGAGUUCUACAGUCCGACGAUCUGGAGCUACAGAUGGUGUCCUUCCUGCCAGGUGUGUGUGGAGGCCAGUAUGAAGCUGAAAAAGCAGGUGACAGUGUGUGGGGCUGCCAUCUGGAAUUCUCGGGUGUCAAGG | 0.196
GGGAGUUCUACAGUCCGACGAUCAAGUCCUGUGCUACACAUCGUAUGUACCGAAUCGGGAAAAAGGGUGGGAAAAAGGGAAAGUAUUAUGUUACGCCGUUCGGAUCUGCACUUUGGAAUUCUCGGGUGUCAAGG | 0.849
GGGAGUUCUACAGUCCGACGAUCCACAAAAAACACGCACCCACACAGACACAGAGGGAAGGGGUUGGGAUGGGGACAGGGUGCACAGCAGGGCGGGGUAGGACCCCAGCCCCUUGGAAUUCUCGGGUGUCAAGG | -0.326
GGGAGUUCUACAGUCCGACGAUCCCUCAAGUCCUGUGCUACACAUCGUAUGUACCGAAUCGGGAGGGUGGGUGGGAAAGUAUUAUGUUACGCCGUUCGGAUCUGCACUUCCAGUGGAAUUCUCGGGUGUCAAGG | 0.628

Study 4
Target: Sal-like protein 4, full length isoform A (SALL4, Homo sapiens, UniProt Q9UJQ4, residues 1-1053)
Sequence of UniProt Q9UJQ4 (whole entry, looked up): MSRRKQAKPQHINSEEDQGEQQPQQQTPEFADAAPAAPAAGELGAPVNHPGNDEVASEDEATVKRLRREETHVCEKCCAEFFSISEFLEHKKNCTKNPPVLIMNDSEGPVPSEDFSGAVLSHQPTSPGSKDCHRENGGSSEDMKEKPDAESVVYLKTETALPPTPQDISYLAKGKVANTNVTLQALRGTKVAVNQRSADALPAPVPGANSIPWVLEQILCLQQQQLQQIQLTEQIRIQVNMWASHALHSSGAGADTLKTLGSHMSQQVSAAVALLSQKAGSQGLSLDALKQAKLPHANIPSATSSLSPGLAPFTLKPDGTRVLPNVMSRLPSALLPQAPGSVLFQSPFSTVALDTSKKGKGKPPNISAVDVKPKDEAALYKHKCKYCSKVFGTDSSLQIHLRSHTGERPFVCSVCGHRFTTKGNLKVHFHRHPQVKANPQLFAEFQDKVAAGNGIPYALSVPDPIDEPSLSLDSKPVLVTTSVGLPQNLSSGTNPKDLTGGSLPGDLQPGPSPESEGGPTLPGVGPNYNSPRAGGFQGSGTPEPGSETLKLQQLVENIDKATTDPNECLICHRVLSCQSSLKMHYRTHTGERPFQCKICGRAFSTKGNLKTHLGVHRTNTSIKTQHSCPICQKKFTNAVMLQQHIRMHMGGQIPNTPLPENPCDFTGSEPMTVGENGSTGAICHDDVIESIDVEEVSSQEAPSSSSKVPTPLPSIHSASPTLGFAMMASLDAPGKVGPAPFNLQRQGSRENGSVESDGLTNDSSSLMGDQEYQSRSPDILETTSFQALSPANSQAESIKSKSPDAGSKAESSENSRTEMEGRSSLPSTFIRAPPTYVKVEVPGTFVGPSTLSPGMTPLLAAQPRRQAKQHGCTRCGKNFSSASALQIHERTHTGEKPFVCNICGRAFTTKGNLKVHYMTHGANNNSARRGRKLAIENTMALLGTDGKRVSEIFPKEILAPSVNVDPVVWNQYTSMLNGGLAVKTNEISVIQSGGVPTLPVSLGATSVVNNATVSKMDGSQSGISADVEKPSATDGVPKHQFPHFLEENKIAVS
Method: universal PBM
Molecule type: double-stranded DNA, one strand shown
Matrix: in vitro
Concentration: 600 nM
Setting: 8-mer, flanks averaged, mean of replicates
Direction: higher = stronger binding
Strand | E-score
CAACTCCG | -0.23
GTTCCGTA | 0.043
CGGGTGAG | -0.277
CCTATAGC | 0.0976
AGGACTCC | -0.265
AACAGGCT | 0.0338
ATCATAAG | 0.361
TCAAGTCA | 0.101
AGAGCGTC | -0.185
ATTATCCC | 0.208
GCTGACCA | -0.189
CTGGAACA | 0.0734
CACAGGCG | -0.192
GTTAGAAC | 0.036
CGCGGTGA | -0.294
GTCTCGGA | -0.238
ACGGTTGA | -0.0194
CTGGCGAC | -0.222
AATCCAAT | 0.151
GCAAACAC | -0.0953
AGTAAGGC | -0.111
GCCATAGA | -0.0916
